Assay results gathered from unrelated publications.
Compare with care: the assays were run in different laboratories. Numbers after ± are the reported error.
T1: MBNL1 ZF3-4 duplicated; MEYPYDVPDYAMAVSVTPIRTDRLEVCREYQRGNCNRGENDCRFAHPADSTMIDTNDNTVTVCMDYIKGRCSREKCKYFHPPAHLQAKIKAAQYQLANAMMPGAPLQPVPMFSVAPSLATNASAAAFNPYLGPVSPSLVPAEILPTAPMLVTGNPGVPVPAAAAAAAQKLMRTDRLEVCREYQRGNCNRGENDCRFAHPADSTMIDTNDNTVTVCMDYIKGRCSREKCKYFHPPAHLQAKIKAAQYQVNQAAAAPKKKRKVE
UniProt Q96T21, sequence (whole entry, looked up): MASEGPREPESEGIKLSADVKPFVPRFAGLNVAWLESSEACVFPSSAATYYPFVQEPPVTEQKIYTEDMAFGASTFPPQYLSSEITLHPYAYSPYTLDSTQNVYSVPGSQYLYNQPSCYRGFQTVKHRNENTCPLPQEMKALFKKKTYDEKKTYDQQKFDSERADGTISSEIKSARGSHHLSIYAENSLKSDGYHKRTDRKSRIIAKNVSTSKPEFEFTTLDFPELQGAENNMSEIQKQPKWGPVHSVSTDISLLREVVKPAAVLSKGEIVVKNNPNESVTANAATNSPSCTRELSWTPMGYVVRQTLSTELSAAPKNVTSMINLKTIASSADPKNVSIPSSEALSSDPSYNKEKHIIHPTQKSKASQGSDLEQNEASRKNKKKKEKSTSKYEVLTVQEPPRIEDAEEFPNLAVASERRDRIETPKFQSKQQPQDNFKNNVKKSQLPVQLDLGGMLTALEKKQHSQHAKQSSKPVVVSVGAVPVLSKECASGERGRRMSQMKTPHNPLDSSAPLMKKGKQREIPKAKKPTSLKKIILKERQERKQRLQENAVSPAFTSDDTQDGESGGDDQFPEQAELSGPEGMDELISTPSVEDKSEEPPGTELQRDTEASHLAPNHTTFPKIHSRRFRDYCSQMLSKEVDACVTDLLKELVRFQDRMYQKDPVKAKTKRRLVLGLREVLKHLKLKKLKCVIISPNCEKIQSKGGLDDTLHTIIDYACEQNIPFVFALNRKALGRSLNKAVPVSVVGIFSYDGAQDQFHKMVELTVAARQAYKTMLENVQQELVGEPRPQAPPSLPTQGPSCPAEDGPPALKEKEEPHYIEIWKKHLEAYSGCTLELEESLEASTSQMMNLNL
UniProt P0DX76, sequence (whole entry, looked up): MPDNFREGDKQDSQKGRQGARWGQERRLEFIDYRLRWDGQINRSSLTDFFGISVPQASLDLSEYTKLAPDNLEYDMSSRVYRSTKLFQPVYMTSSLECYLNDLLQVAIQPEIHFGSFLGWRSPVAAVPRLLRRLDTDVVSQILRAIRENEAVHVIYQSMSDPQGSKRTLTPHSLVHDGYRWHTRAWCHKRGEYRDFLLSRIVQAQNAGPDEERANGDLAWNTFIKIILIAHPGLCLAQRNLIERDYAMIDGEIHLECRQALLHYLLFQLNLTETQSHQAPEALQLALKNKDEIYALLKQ
UniProt P04395, sequence (whole entry, looked up): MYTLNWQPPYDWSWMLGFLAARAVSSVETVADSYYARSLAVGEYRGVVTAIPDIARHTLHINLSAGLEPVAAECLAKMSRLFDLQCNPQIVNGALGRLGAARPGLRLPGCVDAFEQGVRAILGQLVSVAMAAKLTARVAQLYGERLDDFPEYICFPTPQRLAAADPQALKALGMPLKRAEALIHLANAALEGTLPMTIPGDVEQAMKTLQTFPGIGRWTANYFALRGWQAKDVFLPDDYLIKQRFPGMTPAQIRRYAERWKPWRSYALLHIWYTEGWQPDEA

Strand | target | test | test system | conditions | how to read | endpoint | value
AGGGGTTACTGAGTAGTTACCAAAGCTTTTTAAGCAGTGAGTATTTACTAAGCCTGGGGG (dsDNA) | ribK full length assumed (UniProt H2C8H2) | fluorescence polarization | double-stranded DNA, one strand shown | with: CTP 100 µM |  | K1/2 | 105 nM
GCAGCCCAUGAUGGGUGAAUCCGAAAUCCUCGAUGGGUCCAGCUUGAUGUCUUUGCAGC (structured RNA; internal loop hairpin) | SECISBP2 515-854 (Homo sapiens, UniProt Q96T21) | EMSA | folded RNA |  |  | Kd | 0.78 µM
CCCCCCC (ssDNA) | capW 1-299 (Escherichia coli, UniProt P0DX76) | fluorescence polarization | single-stranded DNA | range over sequences |  | Kd | 9.54 µM
CTGACCTCATCATTTTCTTAAAAACTGACACTTACAATGTGGTCAGTT (dsDNA) | protein holo (Bacillus clausii, UniProt A0A268NVG2) | fluorescence titration | double-stranded DNA, one strand shown | Mg2+ 5 mM, apparent, Hill fit, with: PLP |  | Kd | 0.0165 ± 0.0007 µM
UUUUGCUUUUUUUUUUUGCUUUU (ssRNA) | T1, MBNL1 ZF3-4 duplicated | EMSA | RNA |  | reference: MBNL-AB, higher = weaker binding | relative binding | 6 fold
RNA 1 GGAGGAUGUUAAUUGGCGUGUCUUGUCUGCAACGGUAUUC / RNA 2 GAAUACCGUUGCAGACAAGACACGCCAAUUAACAUCCUCC (dsRNA) | EIF2AK2 1-185 F41W (Homo sapiens, UniProt P19525) | tryptophan fluorescence anisotropy | double-stranded RNA | 1 µM |  | binding | binds
UGGAGCCUUCCACCCCGGCACUCAUGACGGUCUGCCUGAAAACCAGCCCGCUGGUGGGGCAGUCCCGAGGACCUGGCGUGCAUCCCCGCCGGAGGAAGGUCCA (structured RNA) | Sbp2 full length assumed S95I/V96I/R97L/V98K/Y99E (Drosophila melanogaster, UniProt Q9VSH1) | EMSA | folded RNA |  |  | Kd | 0.04 ± 0.006 µM
CTGACCAAAACAAAAAATCTCCAAAAAACTCGAAAAAAGTGGTCAGTT (dsDNA) | protein holo K360Q/R364Q (Bacillus clausii, UniProt A0A268NVG2) | fluorescence titration | double-stranded DNA, one strand shown | Mg2+ 5 mM, apparent, Hill fit, with: PLP |  | Kd | 0.0388 ± 0.0032 µM
DNA 1 GATCATACTAATACTCGGCCCAAAG / DNA 2 CTTTCCGCCGAGTATTAGTATGATC (dsDNA; 25-mer duplex) | alkA 1-282 (Escherichia coli, UniProt P04395) | competition | double-stranded DNA |  |  | Ki | 0.038 ± 0.005 µM
CGGGGCGGGCCGGGGGCGGGGT (G-quadruplex DNA; parallel in K+) | APEX1 full length assumed D210A (Homo sapiens, UniProt P27695) | fluorescence anisotropy | folded DNA | K+ 50 mM, with: Mg2+ 10 mM |  | Kd | 0.055 ± 0.004 µM

Repeated from above:
Strand | target | test | test system | conditions | how to read | endpoint | value
CTGACCTCATCATTTTCTTAAAAACTGACACTTACAATGTGGTCAGTT (dsDNA) | protein holo (Bacillus clausii, UniProt A0A268NVG2) | fluorescence titration | double-stranded DNA, one strand shown | Mg2+ 5 mM, apparent, Hill fit, with: PLP |  | Kd | 0.0165 ± 0.0007 µM
